Experimental data of several laboratories.
Numbered parts are unrelated; each lists some results of a single study.
UniProt P00519, sequence (whole entry, unmodified, looked up): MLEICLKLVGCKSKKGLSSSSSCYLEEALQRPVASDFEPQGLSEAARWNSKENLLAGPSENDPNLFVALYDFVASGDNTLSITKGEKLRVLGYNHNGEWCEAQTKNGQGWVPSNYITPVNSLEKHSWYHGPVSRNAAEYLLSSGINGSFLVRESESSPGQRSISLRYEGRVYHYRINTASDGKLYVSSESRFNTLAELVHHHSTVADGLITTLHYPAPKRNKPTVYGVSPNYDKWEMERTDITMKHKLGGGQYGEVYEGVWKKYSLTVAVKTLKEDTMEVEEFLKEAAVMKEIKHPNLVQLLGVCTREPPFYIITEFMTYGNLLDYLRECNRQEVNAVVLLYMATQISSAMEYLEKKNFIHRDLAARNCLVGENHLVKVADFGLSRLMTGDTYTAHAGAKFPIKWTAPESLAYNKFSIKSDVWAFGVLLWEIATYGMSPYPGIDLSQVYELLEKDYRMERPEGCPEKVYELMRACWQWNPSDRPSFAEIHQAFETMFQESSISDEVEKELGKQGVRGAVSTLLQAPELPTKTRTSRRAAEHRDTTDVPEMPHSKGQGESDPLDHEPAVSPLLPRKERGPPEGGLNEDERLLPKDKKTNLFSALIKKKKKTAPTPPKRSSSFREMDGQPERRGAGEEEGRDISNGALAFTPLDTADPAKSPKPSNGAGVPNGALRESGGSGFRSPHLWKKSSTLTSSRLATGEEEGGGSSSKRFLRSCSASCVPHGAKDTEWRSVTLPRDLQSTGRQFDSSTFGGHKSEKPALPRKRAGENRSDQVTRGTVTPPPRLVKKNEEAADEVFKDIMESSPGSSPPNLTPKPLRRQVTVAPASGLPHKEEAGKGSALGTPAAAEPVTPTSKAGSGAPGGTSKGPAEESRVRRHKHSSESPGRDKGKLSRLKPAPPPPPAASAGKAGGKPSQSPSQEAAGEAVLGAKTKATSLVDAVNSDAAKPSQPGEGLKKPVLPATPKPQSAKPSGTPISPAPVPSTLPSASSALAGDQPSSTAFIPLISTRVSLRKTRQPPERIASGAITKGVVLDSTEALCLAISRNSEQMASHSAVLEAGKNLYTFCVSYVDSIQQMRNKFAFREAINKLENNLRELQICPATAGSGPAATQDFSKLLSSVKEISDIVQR
UniProt P07333, sequence (whole entry, looked up): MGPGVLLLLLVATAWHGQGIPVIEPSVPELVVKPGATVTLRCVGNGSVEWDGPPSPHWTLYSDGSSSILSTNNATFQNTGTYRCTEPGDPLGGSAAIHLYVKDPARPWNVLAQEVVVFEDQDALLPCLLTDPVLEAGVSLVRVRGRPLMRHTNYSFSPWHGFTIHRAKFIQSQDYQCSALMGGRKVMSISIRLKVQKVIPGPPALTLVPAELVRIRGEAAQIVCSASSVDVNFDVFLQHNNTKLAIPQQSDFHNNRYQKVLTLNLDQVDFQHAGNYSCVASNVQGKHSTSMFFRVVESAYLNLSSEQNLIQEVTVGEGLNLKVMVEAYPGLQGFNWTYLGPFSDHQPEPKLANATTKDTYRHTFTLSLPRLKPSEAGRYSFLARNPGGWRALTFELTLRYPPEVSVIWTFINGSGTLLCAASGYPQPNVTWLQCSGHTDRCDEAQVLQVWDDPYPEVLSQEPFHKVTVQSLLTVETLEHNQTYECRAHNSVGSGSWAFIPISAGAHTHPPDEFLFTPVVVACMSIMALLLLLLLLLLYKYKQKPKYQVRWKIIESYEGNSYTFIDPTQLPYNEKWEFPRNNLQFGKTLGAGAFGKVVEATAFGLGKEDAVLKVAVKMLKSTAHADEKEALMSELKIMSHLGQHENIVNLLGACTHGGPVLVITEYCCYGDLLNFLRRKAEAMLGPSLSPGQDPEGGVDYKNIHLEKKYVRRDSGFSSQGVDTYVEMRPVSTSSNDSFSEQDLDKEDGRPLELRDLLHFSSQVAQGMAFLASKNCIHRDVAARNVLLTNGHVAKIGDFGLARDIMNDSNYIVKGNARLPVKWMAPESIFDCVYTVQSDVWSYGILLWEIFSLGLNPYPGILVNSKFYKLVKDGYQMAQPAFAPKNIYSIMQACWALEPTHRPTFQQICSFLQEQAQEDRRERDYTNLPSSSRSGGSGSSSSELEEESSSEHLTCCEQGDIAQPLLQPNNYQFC
UniProt P10721, sequence (whole entry, unmodified, looked up): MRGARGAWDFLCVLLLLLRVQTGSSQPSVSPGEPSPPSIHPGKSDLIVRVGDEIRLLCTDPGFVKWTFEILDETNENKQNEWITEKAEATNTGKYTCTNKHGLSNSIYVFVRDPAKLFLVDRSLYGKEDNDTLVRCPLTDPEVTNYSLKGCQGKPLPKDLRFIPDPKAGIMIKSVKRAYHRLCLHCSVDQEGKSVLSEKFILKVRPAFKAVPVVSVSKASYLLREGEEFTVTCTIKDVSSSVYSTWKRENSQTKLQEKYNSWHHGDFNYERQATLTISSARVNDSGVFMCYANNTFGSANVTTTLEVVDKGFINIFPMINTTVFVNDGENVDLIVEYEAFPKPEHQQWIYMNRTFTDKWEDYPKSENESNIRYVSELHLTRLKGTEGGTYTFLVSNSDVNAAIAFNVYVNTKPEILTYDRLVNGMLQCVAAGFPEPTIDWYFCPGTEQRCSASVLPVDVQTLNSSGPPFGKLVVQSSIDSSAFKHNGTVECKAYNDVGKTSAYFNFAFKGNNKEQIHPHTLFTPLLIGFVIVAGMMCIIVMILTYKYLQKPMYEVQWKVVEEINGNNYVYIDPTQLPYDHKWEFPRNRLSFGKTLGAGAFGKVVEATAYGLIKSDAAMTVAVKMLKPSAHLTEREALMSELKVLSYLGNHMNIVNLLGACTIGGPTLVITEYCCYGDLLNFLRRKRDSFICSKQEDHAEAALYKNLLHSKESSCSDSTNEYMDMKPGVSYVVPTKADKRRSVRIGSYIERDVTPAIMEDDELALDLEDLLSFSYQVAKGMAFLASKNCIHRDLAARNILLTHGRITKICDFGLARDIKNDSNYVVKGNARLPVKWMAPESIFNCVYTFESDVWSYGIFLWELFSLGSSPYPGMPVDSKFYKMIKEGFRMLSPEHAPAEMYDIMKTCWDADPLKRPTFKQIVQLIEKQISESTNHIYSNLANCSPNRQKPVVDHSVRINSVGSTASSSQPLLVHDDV
UniProt O00238, sequence (whole entry, looked up): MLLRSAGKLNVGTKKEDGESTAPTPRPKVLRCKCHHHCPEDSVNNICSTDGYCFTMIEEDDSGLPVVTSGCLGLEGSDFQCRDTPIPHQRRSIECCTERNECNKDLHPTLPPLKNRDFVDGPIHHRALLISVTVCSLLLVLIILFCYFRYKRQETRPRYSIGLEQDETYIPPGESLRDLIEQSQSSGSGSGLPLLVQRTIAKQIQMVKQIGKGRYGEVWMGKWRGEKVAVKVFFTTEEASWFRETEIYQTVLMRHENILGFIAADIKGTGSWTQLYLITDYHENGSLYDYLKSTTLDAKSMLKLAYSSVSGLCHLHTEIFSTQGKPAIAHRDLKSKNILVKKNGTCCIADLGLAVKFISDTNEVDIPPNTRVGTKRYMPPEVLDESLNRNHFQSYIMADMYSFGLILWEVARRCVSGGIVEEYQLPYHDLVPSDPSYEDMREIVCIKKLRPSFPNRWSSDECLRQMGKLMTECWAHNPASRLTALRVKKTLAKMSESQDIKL
UniProt P36897, sequence (whole entry, looked up): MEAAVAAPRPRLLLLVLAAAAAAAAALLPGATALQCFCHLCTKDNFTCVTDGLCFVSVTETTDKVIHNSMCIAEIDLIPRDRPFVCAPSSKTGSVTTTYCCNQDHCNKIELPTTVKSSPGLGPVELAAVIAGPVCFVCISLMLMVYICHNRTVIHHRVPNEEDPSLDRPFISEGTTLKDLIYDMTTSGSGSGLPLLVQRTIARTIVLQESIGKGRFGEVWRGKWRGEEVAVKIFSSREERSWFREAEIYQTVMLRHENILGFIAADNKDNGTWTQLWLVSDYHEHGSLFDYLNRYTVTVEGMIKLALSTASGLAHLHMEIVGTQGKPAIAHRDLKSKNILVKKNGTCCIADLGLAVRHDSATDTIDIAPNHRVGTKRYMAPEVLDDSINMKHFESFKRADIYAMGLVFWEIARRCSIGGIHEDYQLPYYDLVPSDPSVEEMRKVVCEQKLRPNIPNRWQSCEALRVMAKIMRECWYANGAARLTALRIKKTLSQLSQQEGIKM

Sample 1 — effect on: binding; technique: radioligand binding; concentration: 10 µM
Target: Histamine H4 receptor (HRH4, Homo sapiens, UniProt Q9H3N8)
UniProt Q9H3N8, sequence (whole entry, looked up): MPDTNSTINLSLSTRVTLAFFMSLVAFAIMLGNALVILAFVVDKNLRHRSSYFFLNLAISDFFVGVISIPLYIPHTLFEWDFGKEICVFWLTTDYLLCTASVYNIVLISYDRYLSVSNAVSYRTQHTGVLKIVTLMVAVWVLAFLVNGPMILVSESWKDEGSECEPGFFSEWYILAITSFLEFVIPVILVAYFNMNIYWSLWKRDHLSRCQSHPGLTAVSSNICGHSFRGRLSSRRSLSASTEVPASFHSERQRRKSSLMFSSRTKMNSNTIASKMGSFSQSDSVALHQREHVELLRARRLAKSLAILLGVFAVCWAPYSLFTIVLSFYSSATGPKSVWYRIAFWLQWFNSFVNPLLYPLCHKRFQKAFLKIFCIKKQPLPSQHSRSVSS
Structure (SMILES)	inhibition [%]
CC(C)(O)c1cncc(-c2nc3ccc(F)cc3n2C2CC2)c1	-16.9
CC1=C(C#N)C(c2ccc3c(c2)c(NC(=O)c2ccccc2C)nn3C)C(C#N)=C(C)N1	-13
O=C1c2ccc(Nc3ccc(F)cc3F)cc2CCc2ccc(OC[C@H](O)CO)cc21	-15.3
COc1nc2ccc([C@@](O)(c3ccccc3)C3CCN(C(C)=O)CC3)cc2c(Cl)c1Cc1ccc(-n2cccn2)cc1	-21.2
CC(C)CC(=O)N1CCc2nc(-c3ccc(Br)cc3)nc(N(C)Cc3ccccc3)c2C1	-7.78
O[C@]1(C(F)(F)F)CCCC[C@H]1Nc1ccc(F)cc1	15.6
CCOC(=O)c1cc2cc(-c3cc(C(=O)NCc4ccc(C(=O)O)cc4)nn3C)ccc2[nH]1	-1.52
CNC(=O)c1ccc(Nc2ncc(C(F)(F)F)c(NCc3nccnc3N(C)S(C)(=O)=O)n2)cc1	-19.6
Cc1nc(N2CC[C@@H](O)C2)ncc1-c1cc(C(F)(F)F)cc2[nH]ncc12	12
O=C(Nc1cccnn1)N1CC(CC=Cc2cncc(Oc3ccc(C(F)(F)F)cn3)n2)C1	-20.1
O=C(NC[C@@H]1[C@H]2CN(C(=O)OCc3cc(C(F)(F)F)cc(C(F)(F)F)c3)C[C@@H]12)c1ccc2[nH]nnc2c1	39.5
CCCOc1ccc([C@H]2[C@H](C(=O)O)[C@@H](c3ccc4c(c3)OCO4)CN2CC(=O)Nc2c(CC)cccc2CC)cc1	7.94
O=C(Nc1cnc(Oc2ccc(F)cc2)nc1)N1CCc2ncccc2[C@@H]1c1ccc(F)cc1	-4.41
CNC(=O)Nc1ccc2c(c1)[C@]1(CC2)OC(=O)N(CC(=O)N(Cc2ccc(F)cc2)[C@@H](C)C(F)(F)F)C1=O	5.16
CN1C(=O)[C@@H](N2CCc3cn(Cc4ccccc4)nc3C2=O)COc2ccccc21	6.09
Cc1c(N2CCCC2)nc2ccc(Br)cc2c1C(=O)NC[C@H](CCC(=O)O)c1ccccc1Cl	13.1
O=C1CCc2cc(Nc3cc(OC4CCOCC4)c([N+](=O)[O-])cc3Cl)ccc2N1	11.6
CS(=O)(=O)NCC[C@H](NC(=O)c1cncc2c1cnn2-c1ccc(F)cc1)c1ccnc(S(C)(=O)=O)c1	-0.39
O=C([C@H]1C[C@H](O)CN1c1ccc(Cl)cc1)N1CC2COCC(C1)N2Cc1ccc(Cl)cc1	-3.31
C[C@H](NC(=O)c1cnc2n1[C@](C)(Cc1ccc(C#N)cc1)C(=O)N2c1cc(Cl)c(F)c(Cl)c1)C(=O)NC1(c2ccccn2)CC1	9.55
CC(=O)Nc1c(F)cc(C(=O)N[C@H]2CC[C@H](O)CC2)cc1O[C@@H](C)c1ccccc1	20.1
O=C(O)c1cc(-c2ccc(C3CCNCC3)cc2)c2ccc(-c3ccc(C(F)(F)F)cc3)cc2c1	-6.7
Cc1c(NC(=O)c2cc(C(N)=O)nc3cc(F)ccc23)c(C(F)(F)F)nn1Cc1ccc(C(C)(C)C)cc1	13
Cc1c[nH]c2nccc(Oc3c(F)cc(Nc4cc(Cl)nc(N)n4)cc3F)c12	-8.74
COCCc1ccc(-c2c(C)nc3c(N4CCOCC4)ccnn23)cn1	-1.08

Sample 2 — concentration: 1 µM
Structure (SMILES): CN1CCN(C(=O)c2ccc(NC(=O)Nc3ccc(N(C)c4ccnc(Nc5ccc(CS(C)(=O)=O)cc5)n4)cc3)cc2)CC1
target	technique	notes	baseline	remaining binding [%]
GSK3B (Homo sapiens, UniProt P49841)	competitive binding panel	–	vehicle	95
SGK3 (Homo sapiens, UniProt Q96BR1)	competitive binding panel	–	vehicle	79
Myosin-IIIa (MYO3A, Homo sapiens, UniProt Q8NEV4)	competitive binding panel	–	vehicle	7
MAPK11 (Homo sapiens, UniProt Q15759)	competitive binding	p38-beta	–	100
CSF1R (Homo sapiens, UniProt P07333)	competitive binding scan	autoinhibited form	–	8.8
NTRK3 (Homo sapiens, UniProt Q16288)	competitive binding	TRKC	–	2
EPHA4 (Homo sapiens, UniProt P54764)	competitive binding panel	–	vehicle	85
EPHB1 (Homo sapiens, UniProt P54762)	competitive binding panel	–	vehicle	87
MYLK2 (Homo sapiens, UniProt Q9H1R3)	competitive binding panel	–	vehicle	36
BMPR1B (Homo sapiens, UniProt O00238)	competitive binding panel	–	vehicle	1.1
ABL1 (Homo sapiens, UniProt P00519, F317L)	competitive binding, scanMAX	–	–	51

Sample 3 — action: inhibitor; concentration: 1 µM
Compound: CC#CC(=O)N1CCC[C@H]1c1nc(-c2ccc(C(=O)Nc3ccccn3)cc2)c2c(N)nccn12
target	effect on	inhibition
Tyrosine-protein kinase ABL1, phosphorylated (ABL1, Homo sapiens, UniProt P00519, E255K)	enzyme activity	10%
PIK3CA (Homo sapiens, UniProt P42336)	enzyme activity	2%
KIT (Homo sapiens, UniProt P10721, D816V)	enzyme activity	0%
HCK (Homo sapiens, UniProt P08631)	enzyme activity	1%
Tyrosine-protein kinase ABL1, phosphorylated (ABL1, Homo sapiens, UniProt P00519)	enzyme activity	1%
Ribosomal protein S6 kinase alpha-5, C-terminal kinase domain (RPS6KA5, Homo sapiens, UniProt O75582)	–	0%
TGFBR1 (Homo sapiens, UniProt P36897)	enzyme activity	16%

Sample 4 — effect on: enzyme activity; action: inhibitor; concentration: 10 µM
Target: Calcium/calmodulin-dependent protein kinase type II subunit alpha (CAMK2A, Homo sapiens, UniProt Q9UQM7)
UniProt Q9UQM7, sequence (whole entry, looked up): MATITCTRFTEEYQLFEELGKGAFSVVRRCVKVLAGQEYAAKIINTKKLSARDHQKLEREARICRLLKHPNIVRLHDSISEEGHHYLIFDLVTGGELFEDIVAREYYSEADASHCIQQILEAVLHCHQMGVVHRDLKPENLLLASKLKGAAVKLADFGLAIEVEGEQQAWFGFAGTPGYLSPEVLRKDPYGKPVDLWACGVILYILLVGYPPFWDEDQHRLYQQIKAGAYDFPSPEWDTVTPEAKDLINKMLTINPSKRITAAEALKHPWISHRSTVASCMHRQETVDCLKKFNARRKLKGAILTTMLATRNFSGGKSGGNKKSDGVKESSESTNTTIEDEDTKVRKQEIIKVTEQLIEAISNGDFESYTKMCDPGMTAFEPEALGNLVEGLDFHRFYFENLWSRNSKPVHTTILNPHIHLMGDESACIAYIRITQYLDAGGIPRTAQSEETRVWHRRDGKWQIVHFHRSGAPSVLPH
Compound	inhibition [%]
Oc1cc(O)c2c(c1)O[C@@H](c1cc(O)c(O)c(O)c1)[C@H](O)C2	10
COc1c(/C=C/C(=O)c2ccc(O)cc2)ccc(O)c1CC=C(C)C	-60
N[C@@H](C(=O)N[C@@H]1C(=O)N2C(C(=O)O)=C(Cl)CS[C@H]12)c1ccccc1	8
C[C@@H]1CC[C@@]2(NC1)O[C@H]1C[C@H]3[C@@H]4CC=C5C[C@@H](O[C@@H]6O[C@H](CO)[C@H](O)[C@H](O[C@@H]7O[C@H](CO)[C@@H](O)[C@H](O)[C@H]7O)[C@H]6O[C@@H]6O[C@@H](C)[C@H](O)[C@@H](O)[C@H]6O)CC[C@]5(C)[C@H]4CC[C@]3(C)[C@H]1[C@@H]2C	-12
O=C(Nc1ncc([N+](=O)[O-])s1)c1ccccc1O	-1
COc1ccc(CC(=O)O)cc1	-14
Cc1cn([C@@H]2C[C@@H](O)[C@H](CO)O2)c(=O)[nH]c1=O	-14
CC1(C)C=Cc2c(ccc(-c3coc4cc(O)ccc4c3=O)c2O)O1	7
C=C(C)[C@@H]1CC[C@]2(C(=O)O[C@@H]3O[C@H](CO[C@@H]4O[C@H](CO)[C@@H](O[C@@H]5O[C@@H](C)[C@H](O)[C@@H](O)[C@H]5O)[C@H](O)[C@H]4O)[C@@H](O)[C@H](O)[C@H]3O)CC[C@]3(C)[C@H](CC[C@@H]4[C@@]5(C)CC[C@H](O[C@@H]6OC[C@H](O)[C@H](O)[C@H]6O[C@@H]6O[C@@H](C)[C@H](O)[C@@H](O)[C@H]6O)[C@@](C)(CO)[C@@H]5CC[C@]43C)[C@@H]12	14
